Published values gathered from unrelated publications.
Each numbered part is a random draw from the data of one study; scales do not carry over between parts. Changes are numbered by the printed parent chain.

Series 1
Target: ABI1, truncated, D143A, DHFR fusion (Arabidopsis thaliana)
Technique: DHFR PCA, deep sequencing
Sample: yeast
Setting: methotrexate growth selection, single substitutions
Together with: (+)-ABA 0 µM
Baseline: wild-type fitted maximum
Direction: higher = stronger binding
Starting sequence: PYL1, truncated, DHFR fusion (Arabidopsis thaliana); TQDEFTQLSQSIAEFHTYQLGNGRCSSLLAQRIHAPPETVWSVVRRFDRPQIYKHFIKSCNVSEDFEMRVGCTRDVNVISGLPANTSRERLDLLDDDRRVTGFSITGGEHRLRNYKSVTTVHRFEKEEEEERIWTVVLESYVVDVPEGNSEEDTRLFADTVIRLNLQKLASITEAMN; partner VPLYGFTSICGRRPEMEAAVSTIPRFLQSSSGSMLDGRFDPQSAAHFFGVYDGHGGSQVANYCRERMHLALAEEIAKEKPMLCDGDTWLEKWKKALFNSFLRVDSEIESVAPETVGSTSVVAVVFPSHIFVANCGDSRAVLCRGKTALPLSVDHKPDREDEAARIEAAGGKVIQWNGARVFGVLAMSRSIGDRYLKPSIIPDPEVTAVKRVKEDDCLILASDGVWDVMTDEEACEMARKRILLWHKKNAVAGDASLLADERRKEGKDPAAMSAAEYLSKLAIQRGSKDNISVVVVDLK
| Substitution | relative binding score |
| --- | --- |
| T6E | 44.4% |
| S9W | 11.8% |
| H122L | -4.37% |
| D96A | 1.05% |
| E152H | 14.1% |
| E64H | 28.8% |
| R69Q | 19.4% |
| C60V | 36.7% |
| E67S | 11.2% |
| R49W | -8.17% |
| G108A | 2.37% |
| I52S | 8.77% |
| I79N | 9.33% |
| I133T | 33.7% |
| L169K | -8.19% |
| W134A | 4.88% |
| I105T | -1.44% |
| R69G | 3.68% |
| G21N | 12.4% |

Series 2
Target: Hepatocyte nuclear factor 3-alpha (Foxa1, Mus musculus, UniProt P35582, residues 1-468, full length assumed)
Technique: EMSA with sequencing
Molecule type: double-stranded DNA, one strand shown
Sample: in vitro
Concentration: 10 and 20 nM
Setting: whole designed probe, mean of two concentrations, ends assumed
Baseline: negative control set to 0
Direction: higher = stronger binding
Residues (chain): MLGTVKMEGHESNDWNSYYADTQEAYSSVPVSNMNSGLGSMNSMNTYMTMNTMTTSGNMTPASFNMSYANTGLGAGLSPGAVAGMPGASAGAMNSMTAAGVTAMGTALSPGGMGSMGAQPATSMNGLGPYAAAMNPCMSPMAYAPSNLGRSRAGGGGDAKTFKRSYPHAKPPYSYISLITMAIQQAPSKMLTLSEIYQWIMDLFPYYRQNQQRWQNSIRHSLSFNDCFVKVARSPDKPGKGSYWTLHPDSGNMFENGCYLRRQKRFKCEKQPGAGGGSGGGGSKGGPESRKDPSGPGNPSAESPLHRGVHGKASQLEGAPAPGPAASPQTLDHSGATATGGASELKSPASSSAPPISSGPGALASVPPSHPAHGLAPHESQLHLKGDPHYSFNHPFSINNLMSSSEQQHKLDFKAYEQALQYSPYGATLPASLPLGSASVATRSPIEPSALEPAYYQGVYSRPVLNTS
| Oligonucleotide | normalised bound fraction [ratio] |
| --- | --- |
| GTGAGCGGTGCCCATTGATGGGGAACGGACAGGATTAGAGAAGCAACGTAGAAGTTCAAATATTTCACCTACCTGTCAACAGATTAGTGTGTGTTAAGTCAATATCTTTGCCAGATTAGGCAATCTAAAAGATCGTGTTGTGCAATATATGGGACATACTTATACTACAGTTTTATCTGTTGTTTATTTGAGGTTCAAATTACACTGGCAGCCCTTCATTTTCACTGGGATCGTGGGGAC | 0.324 |
| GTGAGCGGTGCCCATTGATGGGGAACTCTGACATTTTATAAGGTTATTGCTGTTATACCCAATTTTTCTCTTTCTGCACTTTTGGCAATTAGTGTGATCTGTTGTATCAGTTTTGATGCTTGTTTACATTTTTATTACTTTTGTGTGAATTGTCATTTCAGAGATCTTATATATTATCCTAAAAAATGAATATGTTTTTCATAGACTGTAGTCTATGTGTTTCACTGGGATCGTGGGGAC | 0.294 |
| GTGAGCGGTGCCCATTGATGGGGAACCTTTATTAGTTACATGAGTTGGGCAAAACCTTTTGGAATAGTACCAGTGTCACCAAGACAACAGGATGGTTATAGAAAGGCAGAAAAACAATGTAATCTAACATTTTATAAGCATAAATAATAATAGTTATTCTTCTATATACATTCAGTGTCTCTAAGCAGATCCAAAGATTTGCCAAGTTTTAATGAGATGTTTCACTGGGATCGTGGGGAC | 0.00832 |
| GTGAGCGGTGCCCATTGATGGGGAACGCCAGGAAATGTAGTTCTTTAGCTGGACCCATTGCTGCTCCCCTCCCACAAATCAGTTTTTGTTAGAAAGAAGGGGAAGTGGATTTGGGGAAAGTAATTTCAGCAGCTAAACAGCAAGTACAAATCACACATTCAAAAAGTGTGTCCATAAAGGGAAGGAGAGAGATGAGATGATAGTTGGAAGGGGATGTGGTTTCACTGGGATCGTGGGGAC | -0.056 |
| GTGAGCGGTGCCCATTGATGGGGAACATCTTCCCCCTCTTCCTTGCCCCACCAGCTCACCTACGGGGGTTATTTGCAGATAGGAAAATAAATAAAGCCGGCATTCGTTAACGCAGTTCACGCGCATACTGCTGTTTGCTCTGCATCTAACATGGTCCTTACGCGAGGCGTGGCTCCGGGAGAGCAAAGCACCGTGTCAGGCGCATGATCCGGGCTCGCCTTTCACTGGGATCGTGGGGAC | 0.359 |
| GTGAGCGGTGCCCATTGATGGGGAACGTAAAATTAATCCAAAGACACGGAAAGTCCATGAATTTCAGTTCTAACAGAAAATTTTTGAATTAAATTTTCAAAAGGTTGTAACTGACAGAGTAAACATGTACTAGGTACAAGAGGTAATGAATTCTGAAGTTATGAAGTATTTGTATTCCAAGTGGAAATGCAATTGTTTACCTGAATTTTGGGCCCAGAATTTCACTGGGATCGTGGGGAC | 0.272 |
| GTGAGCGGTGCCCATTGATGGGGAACTCTTTCACTCAAGTGGTATATCCCACAGCCCTAAAGAAGCAAGGGAAATAAGAATTAGAACTAGACATCCCAGGAGACAAAGAATTCAACAAAGCAAACACACTTCCTGCTTAACCAATCCCTTCACTATTTACAGAAAATCTCTCTGGCTCAGGCCGGGCAGTGAGTTCATTTATTTCAACAAAATCAAAGATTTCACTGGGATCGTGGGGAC | 0.29 |
| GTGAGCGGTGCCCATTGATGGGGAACAGGTGAATTGGCTGCTTCCATCCTGGCTTGGAACTTCAGACATAGAAGCCTTGGGACTTTCTCAGGACTTCTGACTCATGCTCTCCAGATTCAGCAAACAAGCATCTCTGTGGATCACGTGACCTTAGCCAGGGATGTTGGTGAAACTGTGTGTTGGTCTAGGTACCTAGCCCATGCTAGGTGCTCATCGAATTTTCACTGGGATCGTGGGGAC | 0.0546 |

Series 3
Molecule: PCHRRVLCFDSTT
Effect on: cyclin docking binding
Technique: competitive growth deep sequencing
Molecule type: peptide
Setting: median of replicates
Direction: direction not given
| target | sample | Cln2-subtracted enrichment score |
| --- | --- | --- |
| human cyclin B1 | yeast cyclin B1-Cln2 system | 0.4 |
| human cyclin E1 | yeast cyclin E1-Cln2 system | 2.3 |
| human cyclin A2 | yeast cyclin A2-Cln2 system | 1.7 |

Series 4
Target: Histone acetyltransferase KAT6A, winged helix 1, GST fusion (KAT6A, Homo sapiens, UniProt Q92794, residues 1-85)
Technique: protein binding microarray
Molecule type: double-stranded DNA, one strand shown
Sample: in vitro
Concentration: not given
Setting: 8-mer, flanks averaged, mean of 2 arrays, mostly near background
Baseline: not given
Direction: higher = stronger binding
Construct (chain): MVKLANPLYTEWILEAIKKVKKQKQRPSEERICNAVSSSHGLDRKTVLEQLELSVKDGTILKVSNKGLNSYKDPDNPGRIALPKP
| Oligonucleotide | E-score |
| --- | --- |
| ACACGTCC | -0.0255 |
| CCCCACCC | -0.132 |
| CTTCGGAC | 0.0287 |
| CGCTTAAA | 0.0802 |
| GTACTCCA | -0.0121 |
| CTATCCGC | 0.339 |
| ATGTTTCG | 0.0225 |
| AAGGTAGT | -0.0446 |
| AGCGGTTG | 0.103 |
| CGTCGACG | 0.289 |
| CGCTCTAC | 0.177 |
| CTGTGTGC | -0.0988 |
| GAAGTAGA | -0.253 |
| CCTACAGC | 0.105 |
| ATAAGGAG | -0.00876 |
| ATCAAGAG | -0.135 |
| TCTCGTCA | -0.234 |
| GGGTCTCA | 0.14 |
| GAATATGC | 0.00639 |
| GACAACAA | -0.178 |
| GAATAAAA | 0.00234 |
| AAACATTG | -0.173 |
| AATGCCCT | -0.171 |
| ATATACGA | -0.0738 |

Series 5
Target: RNA binding protein fox-1 homolog 2, RRM domain, GST-SBP tag (RBFOX2, Homo sapiens, UniProt O43251-10, residues 100-194)
Technique: RNA Bind-n-Seq
Molecule type: RNA
Sample: in vitro
Concentration: 365 nM
Setting: natural RNA segment, single round, ends assumed
Baseline: no-protein control
Direction: higher = stronger binding
Residues (chain): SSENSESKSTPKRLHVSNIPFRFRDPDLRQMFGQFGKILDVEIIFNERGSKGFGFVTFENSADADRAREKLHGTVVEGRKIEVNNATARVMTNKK
| Oligonucleotide | RBNS enrichment (R) |
| --- | --- |
| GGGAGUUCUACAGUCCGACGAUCGAGUAGAAAUAGUCUGCUGCAAAUCCUAAACUUAAGAUCCCUGCGCUAGGUUGCUAGAGACUGCGGUUAGUGCAGAACAGAGGUAAGCCUAAGUCCCAUCCUCAUGAACUUGGAAUUCUCGGGUGCCAA | 0.256 |
| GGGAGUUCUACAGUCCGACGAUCGUGGCCUCUGCCUGGCUGUUUGGGGUCCUGCACGGCUUUCCCACCACCUGUAGCUCUUGUUGACCUGCCUGUUCACCUCAUGAGUGAAGCGUCUGCCUGGCAGUGGGCCAUGGAAUUCUCGGGUGCCAA | 2.55 |
| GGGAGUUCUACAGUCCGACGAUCUUUUUAAUUGCUGUUUUCGUUGCUGCAGUACUUUACAAACUUCUAGUUCGUUGAGACUUAGUGACCAUUUGGCAUCAAGUUAACAUCACACAAUAGGAAACACCACUUCCUGGAAUUCUCGGGUGCCAA | 0.355 |
| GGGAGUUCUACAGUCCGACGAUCCAAUAUUGUAACCCCACUCUAGGCACUUGCCUUUAAACUGUCUCAGCCCUUCAGAAGGGCUCAACUACUGUCCUAUACAAUCAAGUGACUGAAAUUCCUGGGAAGACACUUGGAAUUCUCGGGUGCCAA | 0.403 |
| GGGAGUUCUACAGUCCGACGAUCGUUAGCAUGGAACAGAACGCUUUUCACAAAACAAAGGACUGUUUUACAAAUGAUUAUUCCGACAGUGUGUCGACAUAAACUUUUACAACUGCACAGCAGCCAAAAAAAGAUGGAAUUCUCGGGUGCCAA | 5.9 |
| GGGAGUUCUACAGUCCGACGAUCCAAGGCCAUACCUGCCUAGCCCUUUGGCUCCAUCCUGUGGAUGCCCACUCACCCCUCAGACUCCUGCUGCCCAUGCUGUGGCCGGACUUGUCAGCAGGGGGCCUGGUGGGUGGAAUUCUCGGGUGCCAA | 0.287 |
| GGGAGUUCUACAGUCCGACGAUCCCAAGUGGUAUGUCGGCCAUUUCUCCUUAAAACACCUUCCCUACCUUUCCCAUGUACUCAGUUUAGCUCUCAAAGAAGGGGUGAAUCAUAAAGCCAGUGAAAAUUUCACCUGGAAUUCUCGGGUGCCAA | 0.678 |
| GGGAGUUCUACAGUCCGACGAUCUGUGGCUUGGUAUUGUGCAGAUUACCUCUUUGAUAGGUCUAGUCACCUUGUUCAGUGCCUGUCUAACAUGGCUAGCUACAAGGCAAUGUUGUCUCCUCCUAAUGUCCACCUGGAAUUCUCGGGUGCCAA | 0.264 |
| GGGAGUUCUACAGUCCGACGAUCUUGGCAAAAGGCUAACACCUGACUUUAGAAAAUGCUGAUUUGAGAACAAAAGGAAAGGUCUUUUUUCACUGCUUAAAGUGGGGUCACUUUGAUACCUUUGCGGUCAUGUCUGGAAUUCUCGGGUGCCAA | 0.626 |
| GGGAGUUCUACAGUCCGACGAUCCCUACCUGCUUACCCCACUCCCUCACCUUCCUCCUUCCCUUCUGCCCUCCAUCCACCUGCCUUAACUAAUUGGGGCUGGAGUUGGUCAUUUUUGUACACCCACAGUGGUAUGGAAUUCUCGGGUGCCAA | 1.05 |
| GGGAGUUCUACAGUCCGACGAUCAAAUCAGUGAAAUGUACCUUAUACUUUAAUAAAAAAUGUUUUCAGAAAUAGAUAAGUGAAAGCUGAGUGUUUCUUUGAUAGGUUCCCCUGUACUAUAGGAGUGAUAAUUGUGGAAUUCUCGGGUGCCAA | 0.442 |
| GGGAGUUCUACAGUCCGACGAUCACGUGGCCCCUUGACCCGGGCGGCCCCGCCGCUUCUUUCCUUCCUGCAGUUCCCAGCCCUCGGAGCCCCCAUCCCUUAUCUUACCCCCACCGCGCUCCCCCAGGAGCGCUUGGAAUUCUCGGGUGCCAA | 0.574 |

Some of these lines once more (series 4):
| Oligonucleotide | E-score |
| --- | --- |
| GGGTCTCA | 0.14 |
| CTATCCGC | 0.339 |
| ATAAGGAG | -0.00876 |
| CCTACAGC | 0.105 |
| GAAGTAGA | -0.253 |
